# Measured values from different studies.
# Parts stem from different laboratories: compare values within a part only.
# Sequence of UniProt Q9Y2X8 (whole entry, looked up): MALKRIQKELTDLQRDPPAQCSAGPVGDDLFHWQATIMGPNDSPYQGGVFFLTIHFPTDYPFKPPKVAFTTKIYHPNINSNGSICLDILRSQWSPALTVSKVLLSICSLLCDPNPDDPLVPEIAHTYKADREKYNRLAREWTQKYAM

# Study 1 — method: protein-binding microarray; molecule type: double-stranded DNA, one strand shown; matrix: in vitro; concentration: 250 nM; notes: 60-bp whole probe; added: salmon DNA 0.4 mg/ml; reference: random background probes; reading: higher = stronger binding; all sequences stand within: GCCTAGCAC … GTCTTGATTCGCTTGACGCTGCTG
# Target: Interferon regulatory factor 5, full length, phosphomimetic (IRF5, Homo sapiens, UniProt Q13568-2, residues 1-514, K96S/S451D/S453D/S456D/S462D)
Strand,log fluorescence
TTAGATTCCAGCTTCGATTAGTGCTAG,1.17 z-score
TTAGGTATCGGAACTGGGTTAGTGCTA,2.57 z-score
TTAGATTTCAGACTGTATTAGTGCTAG,0.618 z-score
TTAGATATCAGAATGGATTAGTGCTAG,0.318 z-score
TCATCTCCCAGACTGGAGTGGTGCTAG,-0.376 z-score
TTTTCATTGTTTTTCATCATGTGCTAG,3.3 z-score
TTAGGCCTCCTACTGCTTTAGTGCTAG,-0.368 z-score
GCCGGTATCGGACTGGGGACGTGCTAG,1.24 z-score

# Study 2 — method: RNA Bind-n-Seq; molecule type: RNA; matrix: in vitro; concentration: 365 nM; reference: no-protein control; reading: higher = stronger binding
# Target: RNA binding protein fox-1 homolog 2, RRM domain, GST-SBP tag (RBFOX2, Homo sapiens, UniProt O43251-10, residues 100-194)
# Notes: natural RNA segment, single round, ends assumed
# Target sequence (chain): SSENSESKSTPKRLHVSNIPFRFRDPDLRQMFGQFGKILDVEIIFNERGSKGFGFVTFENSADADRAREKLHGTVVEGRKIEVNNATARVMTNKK
Strand,RBNS enrichment (R)
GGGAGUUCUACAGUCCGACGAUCGUUAAUUUCUGUCAAACAGUAGGUGACAAAUGGCCGAUCUUAUCAGUGUCUCUUGAGCAUCCCUUCGCGCCCCCCACCCUCCACUGCCGUCCCUCCCCAGAUGGGGCGUUUGGAAUUCUCGGGUGCCAA,0.354
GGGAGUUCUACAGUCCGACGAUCCUGCCAUUGCACUUUGUAAAUCUGUAGAAUCGCUCGUAUAAAAUUUCUAUUAAAGAUUCUAGUGAAACAUAAAGUUGUAUUGUGUUCACCUUAAAACUUAUUGGAUUAUGUGGAAUUCUCGGGUGCCAA,0.709
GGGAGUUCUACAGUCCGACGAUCUUAUGACCCCCUCAUCCUUCUCUUGAACUGGAGAGGGGAAGAAAUGAAAGGCAUGCCCACGUCCGUCACCUCCCCAUCCCCUAGUCCCCACCUUGAACAUCAUGAGCUGUUGGAAUUCUCGGGUGCCAA,4.28
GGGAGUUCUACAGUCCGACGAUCCAGGCAGGAUUGGUUUUUUUGUGUCUUGGCAAGUGGAGCAUAUUUAACAUACAGGCAUGGGAAUCCUGCCUCUUAGCUUUUCCCACCCUCUUGUCUCACCAAGUUUUUUCUGGAAUUCUCGGGUGCCAA,0.614
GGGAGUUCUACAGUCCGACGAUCUUAAAUCUCGCACUACAUCUGAUAUCAGGAAAUAUCUGUGAAGGACUUGGUGAUUACCUGAAAGCCCUUCUCAAGACCGAGUGUACACCACUUUCCCACACUGUGAACUAUGGAAUUCUCGGGUGCCAA,0.318
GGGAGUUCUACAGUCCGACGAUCCAUCCAAAGAAGAUACAGUAUGAAAGUAGAGGUGCACUCUCUAUAAUACAAUCUACUGUACAGUUAGCAAGCGAAGUGUUAAAUGGAGAAGAUGCUUGUUUUUAUUAAACUGGAAUUCUCGGGUGCCAA,0.427
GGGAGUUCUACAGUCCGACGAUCCAAGCCCUCCUCUGUGUCCAGUAAAUAAUGCUUAUCCCAAGGGGCCCGUCUCCCAGGGCAUUUCCCCCUCCCGUGCACAGCCAUUGGUGGCAAAUCCUUCUGCCAUCAGCUGGAAUUCUCGGGUGCCAA,0.506
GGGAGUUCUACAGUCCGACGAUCAACUGUUGCUAUUGUGAGAUGGAUUUUAACUGACCUAUUAAGGGUUUCUUUCGAAUGGCACUACUUUAGGGACAUUCUAGUAUUUGCUUCUAUUGUUUGGGCCUUGUGGAUGGAAUUCUCGGGUGCCAA,0.537

# Further values, each from its own experiment
Sequence,target,assay,test system,conditions,scale,measurement,result
QVQSRTKIEECVVCSDKKAAVLFQPCGHMCACENCANLMKKCVQCRAVVERRVPFI (MIB1 RING domain (UniProt Q86YT6)),UBE2D4 UBC core domain (UniProt Q9Y2X8),yeast two-hybrid,yeast,mostly zero background,"reference: not given, higher = stronger interaction",lacZ reporter activity,0
NRDVSFQDL,"HLA class I histocompatibility antigen, A alpha chain, allele A*25:01 (Homo sapiens, UniProt P04439)",peptide-MHC binding,peptide,concentration not given,,binding,inactive

# Repeated from above (study 1):
Strand,log fluorescence
TCATCTCCCAGACTGGAGTGGTGCTAG,-0.376 z-score
GCCGGTATCGGACTGGGGACGTGCTAG,1.24 z-score
